Results from different studies.
Each numbered part is a random draw from the data of one study; scales do not carry over between parts.

Set 1
Target: Histone acetyltransferase KAT6A, winged helix 2, GST fusion (KAT6A, Homo sapiens, UniProt Q92794, residues 85-181)
Method: protein binding microarray
Form: double-stranded DNA, one strand shown
Medium: in vitro
Concentration: not given
Notes: 8-mer, flanks averaged, mean of 2 arrays, mostly near background
Reference: not given
Reading: higher = stronger binding
Construct (chain): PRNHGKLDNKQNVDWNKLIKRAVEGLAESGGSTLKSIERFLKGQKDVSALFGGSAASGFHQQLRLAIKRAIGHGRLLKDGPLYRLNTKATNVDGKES
`AACCGTGG` gave an E-score of -0.155.
The E-score of `CAATGAAG` is reported as -0.118.
`CGAGCTGC` has an E-score of 0.117.
For `CGGCGCAC`, the E-score was 0.117.
With `AGATATTA` the E-score was -0.099.
`CGTTCGAG` has an E-score of 0.0053.
`CTGGCTAA` gave an E-score of -0.0485.
`CCTGTTGC` gave an E-score of 0.0871.
`AGGTTAAG` has an E-score of -0.153.
`GACCCGGC` gave an E-score of 0.139.
For `CACCGTAC`, the E-score was -0.127.
The E-score of `CCATACGC` is reported as 0.0201.
`ACTCAACT` has an E-score of -0.0342.
The E-score of `TTGCAAAA` is reported as 0.0191.
`AGCTTGCC` gave an E-score of 0.0604.
`AACTGGTA` gave an E-score of -0.0561.
`TCGCGGCA` gave an E-score of 0.155.
`AACAACCG` has an E-score of -0.0727.
With `CGCGTCCA` the E-score was 0.0837.
`ATGAGAGG` has an E-score of -0.228.
For `AACCCGCT`, the E-score was -0.0784.
For `TGATGCAA`, the E-score was 0.0632.
`ACTCGAGC` has an E-score of 0.00889.
`GAGTAGAC` gave an E-score of 0.0112.
`AGATCCAC` gave an E-score of 0.0191.

Set 2
Target: Fragile X messenger ribonucleoprotein 1, C-terminal low-complexity region (Fmr1, Mus musculus, UniProt P35922)
Method: RNA Bind-n-Seq
Form: RNA
Medium: in vitro
Concentration: 200 nM
Notes: whole 134-nt RNA, ends assumed
Added: 150 mM KCl
Reference: input library
Reading: higher = stronger binding
The log2 enrichment of `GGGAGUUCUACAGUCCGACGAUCUCCUGUGCUACACAUCGUAUGUACCGAAUCGGGGAGGGGAAAAAGGGGAAAAAAAGGGGAAAGUAUUAUGUUACGCCGUUCGGAUCUGCAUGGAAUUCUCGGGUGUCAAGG` is reported as 0.471.
For `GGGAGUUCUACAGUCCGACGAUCGUCCUGUGCUACACAUCGUAUGUACCGAAUCGGGCCCCGGGGCCCCGGGGCCCCGGGGAAAGUAUUAUGUUACGCCGUUCGGAUCUGCACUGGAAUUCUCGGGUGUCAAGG`, the log2 enrichment was -0.56.
For `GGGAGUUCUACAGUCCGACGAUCUCCUGUGCUACACAUCGUAUGUACCGAAUCAAACCCCCCCAAACCCCCCCAAACCCAAAAAAGUAUUAUGUUACGCCGUUCGGAUCUGCAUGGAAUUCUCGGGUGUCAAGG`, the log2 enrichment was 0.243.
For `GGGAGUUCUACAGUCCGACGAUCCAAGUCCUGUGCUACACAUCGUAUGUACCGAAUCGGGGCCCGGCCCGGCCCGGGGAAAGUAUUAUGUUACGCCGUUCGGAUCUGCACUUCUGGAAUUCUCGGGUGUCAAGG`, the log2 enrichment was -0.472.
`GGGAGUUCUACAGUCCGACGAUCCACAGACAACACGCACCCACACAGACACAGAGGGUAGGGGUUGGGAUGGGGACAGGGUGCACAGCAGGGCGGGGUAGGACCCCAGCCCCUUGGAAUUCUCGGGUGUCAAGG` has a log2 enrichment of 1.46.
With `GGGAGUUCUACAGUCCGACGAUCACCAUGCAGGUGGGCAUCUUUGGGAAGUGGGGCAAAAAGGGGAUAGGGAGGGGGGUAACACUUUGGGAACAGGUGGUCCCAGGUCGUUUCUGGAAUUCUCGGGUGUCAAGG` the log2 enrichment was 0.624.
With `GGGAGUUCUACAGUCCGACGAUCGCAGGAAGUAAAAACAAAUGGAAAUGCUUCGGGUAGUGGCAGGGGUGGGGGUUGCUAAGGAAAGGGUGGGAUGGGAGUGGGUAAAGAGUUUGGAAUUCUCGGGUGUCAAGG` the log2 enrichment was 0.271.
With `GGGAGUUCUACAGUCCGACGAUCGUCCUGUGCUACACAUCGUAUGUACCGAAUCGGAAAAAAGGAAAAAAGGAAAAAAGGGGAAAGUAUUAUGUUACGCCGUUCGGAUCUGCAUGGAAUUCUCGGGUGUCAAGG` the log2 enrichment was -0.572.
`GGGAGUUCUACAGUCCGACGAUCUUCAAGGCCAUGAAGGACCUGUUUAUGCGGUGCAUGCUGUUUACCAGAGGAGGACAUCAGAUCCUGCAUUAUGUACACUGAUCGUUUCUGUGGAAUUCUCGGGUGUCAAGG` gave a log2 enrichment of -1.06.
For `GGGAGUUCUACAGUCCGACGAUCAAGUCCUGUGCUACACAUCGUAUGUACCGAAUCGGGGCCCGGGCCCGGGGCCCGGGGAAAGUAUUAUGUUACGCCGUUCGGAUCUGCACUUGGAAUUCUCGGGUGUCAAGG`, the log2 enrichment was -0.887.

Set 3
Target: Interferon regulatory factor 3, full length, phosphomimetic (IRF3, Homo sapiens, UniProt Q14653, residues 1-427, S386D/S396D/S398D/S402D/T404D/S405D)
Sequence of UniProt Q14653 (whole entry, unmodified, looked up): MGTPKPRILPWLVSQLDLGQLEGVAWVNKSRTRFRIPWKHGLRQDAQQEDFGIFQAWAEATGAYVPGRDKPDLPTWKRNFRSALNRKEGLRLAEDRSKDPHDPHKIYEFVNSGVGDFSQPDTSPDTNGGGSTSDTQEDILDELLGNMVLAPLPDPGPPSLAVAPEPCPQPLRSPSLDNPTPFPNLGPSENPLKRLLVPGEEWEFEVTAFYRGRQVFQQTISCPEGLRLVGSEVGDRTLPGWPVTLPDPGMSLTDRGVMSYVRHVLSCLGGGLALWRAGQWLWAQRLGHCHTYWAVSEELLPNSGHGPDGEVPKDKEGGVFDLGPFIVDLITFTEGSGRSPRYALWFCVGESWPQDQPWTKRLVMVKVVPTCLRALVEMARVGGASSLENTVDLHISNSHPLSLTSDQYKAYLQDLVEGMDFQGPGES
Method: protein-binding microarray
Form: double-stranded DNA, one strand shown
Medium: in vitro
Concentration: 2540 nM top
Notes: 60-bp whole probe
Added: salmon DNA 0.4 mg/ml
Reference: random background probes
Reading: higher = stronger binding
All sequences stand within: GCCTAGCAC … GTCTTGATTCGCTTGACGCTGCTG
`GACGGTATCCTGATCCTGACGTGCTAG`: “fitted relative affinity” 1.71 z-score.
Under “fitted relative affinity”, `CTCTGCTTGCGTCTGGGTGTGTGCTAG` is recorded as -0.818 z-score.
For `TTAGGACTGGACTATGGGTTAGTGCTA`, “fitted relative affinity” read -0.599 z-score.
Under “fitted relative affinity”, `GTAGGTATCGGTCTCGGTTAGTGCTAG` is recorded as 4.62 z-score.
For `TTAAATTTTAATAACACAGAGTGCTAG`, “fitted relative affinity” read -0.129 z-score.
`TTAGTTCTCGGTCTCGGTTAGTGCTAG` — result for “fitted relative affinity”: 1.59 z-score.
`GACGATATCGGACTGGGGACGTGCTAG`: “fitted relative affinity” 0.0735 z-score.
For `CTACTTCTCTTTTTGCTTTCGTGCTAG`, “fitted relative affinity” read 3.13 z-score.
For `GACGGTCTCCTTATCCTGAAGTGCTAG`, “fitted relative affinity” read 2.88 z-score.
For `GCTAGTATGTTCCTTATTTAAGTGCTA`, “fitted relative affinity” read 1.38 z-score.
For `GACGGTTTCCTACTGCTGCCGTGCTAG`, “fitted relative affinity” read 5.11 z-score.
Under “fitted relative affinity”, `GTGTTTCTCAAATGTTTTGTTGTGCTA` is recorded as 1.13 z-score.
For `GACGGTATCGGGACTGGGGAAGTGCTA`, “fitted relative affinity” read 1.83 z-score.
`TGGCCTCTAGGTTTTCTGAAGTGCTAG`: “fitted relative affinity” -0.839 z-score.
For `TTTGCTTTCTTTATGTACTCGTGCTAG`, “fitted relative affinity” read 2.68 z-score.
`GACAAACTGGGGACTGGAGACGTGCTA`: “fitted relative affinity” -0.594 z-score.
`CTCTGCTTGTATCTGGGTTCGTGCTAG` — result for “fitted relative affinity”: -0.247 z-score.
Under “fitted relative affinity”, `TTAGAACTGGTGACTGGATTAGTGCTA` is recorded as -0.6 z-score.
For `TTAGGGTTCGGTCTCGGTTAGTGCTAG`, “fitted relative affinity” read 2.01 z-score.
`TTAGGACGGGGTATCGGTTAGTGCTAG` — result for “fitted relative affinity”: 0.293 z-score.
Under “fitted relative affinity”, `TTAGAACTAAGTTTCGATTAGTGCTAG` is recorded as 3.27 z-score.
For `GGCCCAGGAGGAGGCCCCTCGTGCTAG`, “fitted relative affinity” read -1.51 z-score.
`TTAGTTCTCAGACTGGATTAGTGCTAG`: “fitted relative affinity” 0.82 z-score.
`CTGCCTGTCCATTCCTTCCAGTGCTAG` — result for “fitted relative affinity”: 0.658 z-score.
For `GACGGACTAGGGACTGGGGACGTGCTA`, “fitted relative affinity” read -0.784 z-score.

Set 4
Target: RNA binding protein fox-1 homolog 2, RRM domain, GST-SBP tag (RBFOX2, Homo sapiens, UniProt O43251-10, residues 100-194)
Method: RNA Bind-n-Seq
Form: RNA
Medium: in vitro
Concentration: 365 nM
Notes: natural RNA segment, single round, ends assumed
Reference: no-protein control
Reading: higher = stronger binding
Target sequence (chain): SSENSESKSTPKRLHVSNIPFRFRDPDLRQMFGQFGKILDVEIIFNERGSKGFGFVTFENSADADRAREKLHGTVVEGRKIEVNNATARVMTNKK
`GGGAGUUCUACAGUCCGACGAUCGAAAAUGAAACCAUAAACUCUAAGUGGCUCUUAUAGGUGCUGAAGGGCUUAUUCUCAGCUAACCCUGGAAGGCUCUAGGGAGGGAGUCUUUUUCCUGAUCCUUGGUAUGAUGGAAUUCUCGGGUGCCAA`: “RBNS enrichment (R)” 0.368.
`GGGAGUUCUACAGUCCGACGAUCGCCUGGGGUCCCUCUGAAGAGACCUUGGCUGCUCACUGUCCACAUGUGAACUUUUUCUAGGUGGCAGGACAAAUUGCGCCCAUUUAGAGGAUGUGGCUGUAACCUGCUGGUGGAAUUCUCGGGUGCCAA` — result for “RBNS enrichment (R)”: 0.39.
For `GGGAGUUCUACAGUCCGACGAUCAUCUACGUGGCUUAUAACAUGUACCAGCCUUGUGGGGACUGCAGUGGGCCAUUCUGAAGAAUCACAAAGACAGAAGACCUCUGGCUAAGAGCAGGCUUCAAACGAUGUGAUGGAAUUCUCGGGUGCCAA`, “RBNS enrichment (R)” read 0.561.
`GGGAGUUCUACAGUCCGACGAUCCCCUGCUAGUUCCUGUCAAGGCAUGCCCAGGUUCUCCACAGCUUUCCAGUGCAAAAGGCCUAGACACUCCCAGUAGCCCAGCCUCUCUGGUCAUCUCUCCGUUCACACCCUGGAAUUCUCGGGUGCCAA` — result for “RBNS enrichment (R)”: 0.978.
Under “RBNS enrichment (R)”, `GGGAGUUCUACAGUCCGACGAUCUAAGAUAUUUGUAUAUAACUUGGGCUUUGUAGCUUUUAUUUAUUCAGACUCAUAUGGCAUGUUAAUUAAUGACUUACGAUGGUGUCCUACUCUGGGCAGCUGUAUAGGAUUGGAAUUCUCGGGUGCCAA` is recorded as 1.06.
`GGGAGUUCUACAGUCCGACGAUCCCCAACACACUUUUCCACCUGGGAGCCUGUGCCCUCAGACCGCCCCGCACCAGAGCCACGGGCUGUGGGGCGGGGAGCCCUCCCCCGCUGCAGCCCUCUCAGAACAGAGGUGGAAUUCUCGGGUGCCAA` — result for “RBNS enrichment (R)”: 0.256.
`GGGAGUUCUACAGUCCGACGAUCGCUUUCUCUUACAAAAAGAAAAAAAAAAUCCUGUUGUAUUAACAUUUAAAAACAGAAUUGUGUUAUGUGAUCAGUUUUGGGGGUUAACUUUGCUUAAUUCCUCAGGCUUUUGGAAUUCUCGGGUGCCAA` — result for “RBNS enrichment (R)”: 0.423.
For `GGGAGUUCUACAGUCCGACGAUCAAAAAAUAAUAGUUAUCAGUAGUGUCACUGGAAAGAAGAGAGGAGGGACAAAACUGAGCAGCAGAAUUCGUAUAGACAUUUACGUUUAAAUUCUAAAAGCCCAAUUGAGAUGGAAUUCUCGGGUGCCAA`, “RBNS enrichment (R)” read 0.76.
`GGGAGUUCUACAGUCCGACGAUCAAUAUCCUUUCUCAUGGAAGUGCAUACCUGCGUGUGGAGAAGCUGAGGAGUGAAAACCAUGCAAGUAGAUGCUUACUGCCUUGACAUGGGAAUUACGGUUAUGACAGAACUGGAAUUCUCGGGUGCCAA`: “RBNS enrichment (R)” 0.275.
Under “RBNS enrichment (R)”, `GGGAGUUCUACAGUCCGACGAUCGGCUCUCCUCUUUUGAGCAUGUGUUAGCAUUUUUAUUUUAUACUCAUCCAGUGAACUCUGCUCUUCCAAGUGUGUUCAUGUAUGUGCUAGAUAUAUUAGCACAGCCUGCCUGGAAUUCUCGGGUGCCAA` is recorded as 6.17.
`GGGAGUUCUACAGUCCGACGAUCUUAUCUGUAAAUUUGCUCAAAUAAUAAGAUAAUGUACAACACUAAUAGCCAGAUAUGAGUUUAAACUUUUUUCAUGCUUGUAUAUUUUAUUUUUAACUAUAUACAAGUAUUGGAAUUCUCGGGUGCCAA`: “RBNS enrichment (R)” 1.11.
`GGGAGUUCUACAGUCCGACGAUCGGUGUGUCAGGGACUCUGUUUACUUGAAGACUGUGUGCAGUUGCCAGUUCGUCUCCCUGCUGUCUUUGAGCUAGGACUCAUAAUUUCCCUACAAAGGUCUCUGGUUAAAAUGGAAUUCUCGGGUGCCAA` — result for “RBNS enrichment (R)”: 0.431.
